Measurements from different studies.
Every numbered part comes from another study and shows a few of its results, in no order.

Set 1
Target: Phosphate system positive regulatory protein PHO4, full length, GST-tagged (PHO4, Saccharomyces cerevisiae, UniProt P07270, residues 1-312)
Method: competition protein-binding microarray
Form: double-stranded DNA, one strand shown
Sample: in vitro
Tested at: 2 µM
Setting: whole 60-bp probe, lowest competitor level
Added: Cbf1 competitor, 0.05 µM
Direction: higher = stronger binding
Constant ends, left off below: … GTCTTGATTCGCTTGACGCTGCTG
Construct (chain): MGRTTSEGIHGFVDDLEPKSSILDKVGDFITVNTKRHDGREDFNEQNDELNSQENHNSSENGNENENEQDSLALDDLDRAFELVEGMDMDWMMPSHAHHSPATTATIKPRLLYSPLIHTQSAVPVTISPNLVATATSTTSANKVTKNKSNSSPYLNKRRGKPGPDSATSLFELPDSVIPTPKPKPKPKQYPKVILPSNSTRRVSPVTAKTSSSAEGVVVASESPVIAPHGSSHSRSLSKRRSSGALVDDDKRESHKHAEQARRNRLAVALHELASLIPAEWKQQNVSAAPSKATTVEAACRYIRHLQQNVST
Sequence	fluorescence intensity [a.u.]
GAATCGCAAGATACCCACGATGAGACTGTTCAGGTT	8070
AGTGGGCTTTCTTGTCATGCCACTCAAGTTACAAGC	3750
CTAATCAGCAAGACACATGTGCCTTGCAGTAGGGCA	10900
CGGGGTTAAGTTTGGACTGTGGGTGGCTTGCAGCAG	5450
CATACCCAACCTTGCCCCGTGGGTGAAGATATTTGT	12100
CCGGAAAAACCTGTTCGCGTGAGCCGAACAACTTTC	5030
CTCAGGTAGACGGTGCTCGTGTCGGGACAATTTTAA	8550

Set 2
Target: Fragile X messenger ribonucleoprotein 1, C-terminal low-complexity region (Fmr1, Mus musculus, UniProt P35922)
Method: RNA Bind-n-Seq
Form: RNA
Sample: in vitro
Tested at: 200 nM
Setting: whole 134-nt RNA, ends assumed
Added: 150 mM LiCl
Relative to: input library
Direction: higher = stronger binding
All molecules: 7-deaza-guanosine replaces G
Constant ends, left off below: GGGAGUUCUACAGUCCGACGAUC … UGGAAUUCUCGGGUGUCAAGG
Sequence	log2 enrichment
UCCUGUGCUACACAUCGUAUGUACCGAAUCGGGGAAAAAAGGAAAAAAGGGGAAAAAAGGAAAGUAUUAUGUUACGCCGUUCGGAUCUGC	-0.637
CCUCAAGUCCUGUGCUACACAUCGUAUGUACCGAAUCGGGAGGGUGGGUGGGAAAGUAUUAUGUUACGCCGUUCGGAUCUGCACUUCCAG	-0.335
UUACACAAACCUGCAGGUGAAGACAGGCCAGCGGACCCUCAUCAACCCCAAGCCCUGUGGCCAGUUUUGCUGCUGUGAAGUGCUGGGCUG	-0.829
UAACUUUAGAGGAGGAUCUGAUGGAUAUGGCAGUGGACGUGGAUCUGGGGAUGGCUAUAAUGGGUAUGGAGGAGGACCUGGAGGUGGCAA	-0.2
CCUGUGCUACACAUCGUAUGUACCGAAUCGGGUUUUUUUGGGUUUUUUUGGGAAAAAGGGAAAGUAUUAUGUUACGCCGUUCGGAUCUGC	-1.28
UCCUGUGCUACACAUCGUAUGUACCGAAUCGGGGUUUUUUUGGGGAAAGGGGAAAGGGGAAAGUAUUAUGUUACGCCGUUCGGAUCUGCA	-0.317
AAGUCCUGUGCUACACAUCGUAUGUACCGAAUCAAAUUUAAAUUUUUAAAUUUAAAAAAGUAUUAUGUUACGCCGUUCGGAUCUGCACUU	-3.37
ACCAUGCAGGUGGGCAUCUUUGGGAAGUGGGGCAAGGGGGGGAUAGGGAGGGGGGUAACACUUUGGGAACAGGUGGUCCCAGAAAGUUUC	0.868

Set 3
Target: PABPC1L2, full length, GST fusion (mouse, UniProt A0ABA7IW68)
Method: RNAcompete
Form: RNA
Sample: in vitro
Tested at: 20 nM
Setting: 7-mer, probes averaged, single round
Relative to: mean of 7-mers
Direction: higher = stronger binding
Construct (chain): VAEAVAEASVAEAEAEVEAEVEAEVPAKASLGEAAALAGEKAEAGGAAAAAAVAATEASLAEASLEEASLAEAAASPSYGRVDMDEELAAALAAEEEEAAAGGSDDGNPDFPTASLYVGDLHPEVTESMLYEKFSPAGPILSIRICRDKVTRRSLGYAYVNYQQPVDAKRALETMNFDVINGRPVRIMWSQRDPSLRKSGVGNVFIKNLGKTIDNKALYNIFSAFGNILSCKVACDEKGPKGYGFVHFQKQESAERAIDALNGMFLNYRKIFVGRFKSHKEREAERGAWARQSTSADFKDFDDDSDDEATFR
Sequence	7-mer Z-score
UAAUUGC	-0.286
ACGAGCU	-0.0301
GGGUUAA	0.35
UUACUGA	-0.137
CCCGGAA	-0.113
AAGAUAA	0.698

Mixed results
Substance	target	assay	system	setting	scale	endpoint	value
PhoQ, residues 284 288 289 292 302 303 AGHLVA	PhoP, residues 12 14 15 18 19 SMASL (Escherichia coli, UniProt P23836)	Sort-seq, measured: YFP reporter	E. coli	PhoQ-PhoP variant library, added: 10 µM Mg2+	relative to: high Mg2+ state, higher = stronger signaling	fold induction	3.85

Some of these lines once more (set 1):
Sequence	fluorescence intensity [a.u.]
GAATCGCAAGATACCCACGATGAGACTGTTCAGGTT	8070
CTCAGGTAGACGGTGCTCGTGTCGGGACAATTTTAA	8550
